Results of several laboratories.
Compare with care: the assays were run in different laboratories. ± gives the spread as reported.

CSCC[C@H](NC(=O)CNC(=O)[C@H](CCCCN)NC(=O)[C@H](CC(C)C)NC(=O)[C@@H]1CCCN1C(=O)[C@H](CO)NC(=O)[C@H](Cc1c[nH]cn1)NC(=O)[C@H](Cc1c[nH]c2ccccc12)NC(=O)[C@H](CCCNC(=N)N)NC(=O)[C@H](CC(C)C)NC(=O)[C@H](CCCNC(=N)N)NC(=O)[C@H](Cc1c[nH]c2ccccc12)NC(=O)[C@H](CS)NC(=O)CCCCCNC(=O)CN1CCN(CC(=O)O)CCN(CC(=O)O)CCN(CC(=O)O)CC1)C(=O)O [copper-64 labelled] — tissue uptake (ex vivo biodistribution; BALB/c nude mice, brain; intravenous, dose not given, 6 h, Huh-7 tumour-bearing): 0.21 %ID/g
Cc1ccccc1-c1ccc(-c2nc(-c3ccc(CN(C)CCCC(=O)O)c([18F])c3)no2)cc1C(F)(F)F — tissue uptake (Sprague Dawley rats, male, fat; 120 min): 0.06 ± 0.04 %ID/g
CN1Cc2cc(Cl)ccc2-n2c(nnc2C2CCN(c3cccc([18F])n3)CC2)C1 — tissue uptake (C57BL/6 mouse male, stomach; intravenous, dose not given, 30 min, with: blocking agent 10 mg/kg): 14.7 ± 4.77 %ID/g
CC(C)C[C@@H](NC(=O)[C@@H](CCCNC(=N)N)NC(=O)[C@@H](Cc1c[nH]cn1)NC(=O)[C@@H](Cc1c[nH]c2ccccc12)NC(=O)[C@@H](Cc1c[nH]cn1)NC(=O)[C@@H](Cc1ccccc1)NC(=O)[C@H](NC(=O)[C@@H](Cc1ccc(O)cc1)NC(=O)CNC(=O)CNC(=O)CCOCCOCCOCCNC(=O)CN1CCN(CC(=O)O)CCN(CC(=O)O)CC1)[C@H](C)O)C(=O)N[C@H](CC(N)=O)C(=O)N1CCC[C@@H]1C(=O)O [gallium-68 labelled] — tissue uptake (C57BL/6 mice, male, spleen; intravenous, 1.85 MBq, 60 min, with: blocking antibody): 1.71 ± 0.39 %ID/g
CCCC[C@H]1C(=O)N(C)[C@@H](CCCC)C(=O)N[C@@H](CCCNC(=O)CN2CCN(CC(=O)O)CCN(CC(=O)O)CCN(CC(=O)O)CC2)C(=O)N[C@H](C(=O)NCC(N)=O)CSCC(=O)N[C@@H](Cc2ccc(O)cc2)C(=O)N(C)[C@@H](C)C(=O)N[C@@H](CC(N)=O)C(=O)N2CCC[C@H]2C(=O)N[C@@H](Cc2c[nH]cn2)C(=O)N[C@@H](CC(C)C)C(=O)N(C)CC(=O)N[C@@H](Cc2c[nH]c3ccccc23)C(=O)N[C@@H](CO)C(=O)N[C@@H](Cc2c[nH]c3ccccc23)C(=O)N1C [gallium-68 labelled] — tissue uptake (NOD/SCID mice with CHO-hPD-L1 xenograft, stomach; 10 min post injection): 2.94 ± 0.26 %ID/g
CC[C@H](C)[C@H](NC(=O)[C@H](CCCNC(=N)N)NC(=O)[C@H](CCCCN)NC(=O)[C@H](Cc1ccc(O)cc1)NC(=O)[C@H](CC(=O)O)NC(=O)[C@H](C)NC(=O)CNC(=O)CCOCCOCCOCCNC(=O)CN1CCN(CC(=O)O)CCN(CC(=O)O)CCN(CC(=O)O)CC1)C(=O)N[C@H](C(=O)N[C@@H](CC(C)C)C(=O)N[C@@H](CCCCN)C(=O)N[C@H](C(=O)N[C@@H](CC(N)=O)C(N)=O)C(C)C)[C@@H](C)O [copper-64 labelled] — tissue uptake (ex vivo gamma counting; C57BL/6J male mice, B16-F10 tumour, pancreas; intravenous, 1.85 MBq, 40 min): 0.471 ± 0.074 %ID/g
O=C([O-])CNC(=O)CN1CCN(CC(=O)NCC(=O)[O-])CCN(CC(=O)NCC(=O)[O-])CCN(CC(=O)NCC(=O)[O-])CC1.[177Lu+3] — tissue uptake (Sprague-Dawley rat, pancreas; intravenous (tail vein), dose not given, 2 h): 0.011 % injected dose/g
CC[C@H](C)[C@H](NC(=O)[C@H](CCCCN)NC(=O)CNC(=O)[C@H](CC(C)C)NC(=O)[C@H](Cc1ccccc1)NC(=O)[C@H](CCCCN)NC(=O)[C@H](CO)NC(=O)[C@H](Cc1ccccc1)NC(=O)[C@H](Cc1c[nH]c2ccccc12)NC(=O)[C@H](CCC(N)=O)NC(=O)[C@@H](NC(=O)[C@H](Cc1ccccc1)NC(=O)CCCCCNC(=O)CN1CCN(CC(=O)O)CCN(CC(=O)O)CCN(CC(=O)O)CC1)C(C)C)C(=O)N[C@@H](CCC(=O)O)C(=O)N1CCC[C@H]1C(=O)N[C@@H](CC(=O)O)C(=O)N[C@H](C(=O)N[C@@H](CO)C(=O)N[C@@H](CCC(N)=O)C(=O)N[C@H](C(=O)N[C@@H](CCC(N)=O)C(=O)N[C@@H](CC(=O)O)C(=O)N1CCC[C@H]1C(=O)N[C@@H](CC(N)=O)C(=O)N[C@@H](CC(=O)O)C(=O)N[C@@H](CCC(N)=O)C(=O)N[C@@H](Cc1ccc(O)cc1)C(=O)N[C@@H](CCC(=O)O)C(=O)N1CCC[C@H]1C(=O)N[C@@H](Cc1ccccc1)C(=O)O)C(C)C)C(C)C [copper-64 labelled] — tissue uptake (C57BL/6 male mouse, tumour-naive, brain; 4 h): 0.39 ± 0.03 %ID/g
C[C@H](O)[C@@H](NC(=O)[C@H]1CCCN1C(=O)[C@@H](CCCCN)NC(=O)[C@@H](CO)NC(=O)[C@@H](Cc1ccc(O)cc1)NC(=O)[C@@H](CC(N)=O)NC(=O)CCOCCOCCOCCNC(=O)CN1CCN(CC(=O)O)CCN(CC(=O)O)CCN(CC(=O)O)CC1)C(=O)N[C@H](CC(=O)O)C(=O)N[C@H](CCCNC(=N)N)C(=O)N[C@H](CCC(N)=O)C(=O)N[C@H](Cc1ccc(O)cc1)C(=O)N[C@H](Cc1c[nH]cn1)C(=O)N[C@H](Cc1ccccc1)C(N)=O [gallium-68 labelled] — tissue uptake (BALB/c nude mice U-87 MG tumour, spleen; intravenous, 1.85 MBq, 0.5 h, radiolabelled): 0.68 ± 0.67 %ID/g

Excerpt of the above:
C[C@H](O)[C@@H](NC(=O)[C@H]1CCCN1C(=O)[C@@H](CCCCN)NC(=O)[C@@H](CO)NC(=O)[C@@H](Cc1ccc(O)cc1)NC(=O)[C@@H](CC(N)=O)NC(=O)CCOCCOCCOCCNC(=O)CN1CCN(CC(=O)O)CCN(CC(=O)O)CCN(CC(=O)O)CC1)C(=O)N[C@H](CC(=O)O)C(=O)N[C@H](CCCNC(=N)N)C(=O)N[C@H](CCC(N)=O)C(=O)N[C@H](Cc1ccc(O)cc1)C(=O)N[C@H](Cc1c[nH]cn1)C(=O)N[C@H](Cc1ccccc1)C(N)=O [gallium-68 labelled] — tissue uptake (BALB/c nude mice U-87 MG tumour, spleen; intravenous, 1.85 MBq, 0.5 h, radiolabelled): 0.68 ± 0.67 %ID/g
